# Results from different studies.
# Numbered parts are unrelated; each lists some results of a single study.

# Block 1
# Target: Sal-like protein 4, full length isoform A (SALL4, Homo sapiens, UniProt Q9UJQ4, residues 1-1053)
# Chain of UniProt Q9UJQ4 (whole entry, looked up): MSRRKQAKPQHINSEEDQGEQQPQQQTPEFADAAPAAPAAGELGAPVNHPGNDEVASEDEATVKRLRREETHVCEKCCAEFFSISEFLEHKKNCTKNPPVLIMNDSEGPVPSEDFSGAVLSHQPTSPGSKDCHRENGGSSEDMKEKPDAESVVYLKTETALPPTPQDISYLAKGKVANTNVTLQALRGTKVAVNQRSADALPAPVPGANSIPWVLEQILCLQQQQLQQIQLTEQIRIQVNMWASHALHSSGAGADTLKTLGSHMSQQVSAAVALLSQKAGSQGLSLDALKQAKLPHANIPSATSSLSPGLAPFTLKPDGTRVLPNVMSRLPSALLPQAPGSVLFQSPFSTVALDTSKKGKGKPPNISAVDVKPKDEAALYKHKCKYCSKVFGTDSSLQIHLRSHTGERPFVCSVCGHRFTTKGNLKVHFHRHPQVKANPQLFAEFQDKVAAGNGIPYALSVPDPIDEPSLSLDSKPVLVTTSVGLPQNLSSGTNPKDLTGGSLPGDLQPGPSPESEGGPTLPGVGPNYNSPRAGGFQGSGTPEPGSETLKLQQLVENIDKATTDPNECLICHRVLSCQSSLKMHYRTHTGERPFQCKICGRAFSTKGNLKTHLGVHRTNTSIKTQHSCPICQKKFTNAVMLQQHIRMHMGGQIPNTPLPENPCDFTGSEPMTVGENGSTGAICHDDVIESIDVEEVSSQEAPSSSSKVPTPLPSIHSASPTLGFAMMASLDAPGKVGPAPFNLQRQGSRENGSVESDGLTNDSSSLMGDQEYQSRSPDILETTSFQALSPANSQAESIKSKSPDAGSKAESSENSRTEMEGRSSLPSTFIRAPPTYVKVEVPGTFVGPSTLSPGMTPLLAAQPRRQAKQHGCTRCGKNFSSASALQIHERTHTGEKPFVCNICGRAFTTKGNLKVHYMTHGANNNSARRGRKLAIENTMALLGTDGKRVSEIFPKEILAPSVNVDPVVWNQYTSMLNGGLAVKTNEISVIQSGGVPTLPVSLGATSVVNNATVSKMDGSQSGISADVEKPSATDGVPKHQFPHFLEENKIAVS
# Technique: universal PBM
# Molecule type: double-stranded DNA, one strand shown
# Medium: in vitro
# Concentration: 600 nM
# Notes: 8-mer, flanks averaged, mean of replicates
# Reading: higher = stronger binding
Strand,E-score
GGGTATAC,-0.0725
GCCGGCAA,-0.133
GAGGCAGC,-0.199
CGTCGAGA,-0.021
ATCTTAGG,-0.0671
AAGTGGGT,-0.0983
AATTCGCG,0.00299
CCTACAAC,0.0576
CTAATGCC,-0.0189
CGGACACA,-0.231
GATGTCGC,-0.0941
CAGTAGGC,-0.132
ACGAATAA,0.26
CAAAGACG,-0.0572
GGTTTATA,0.261
ACCCCTCA,-0.236
CTCACGAG,-0.267
ATTTGTGC,0.153
CACATGCA,-0.0452
CAAAACGC,-0.0401
CCTCGGTA,-0.243
CCCAGGGC,-0.439

# Block 2
# Target: Ras GTPase-activating protein-binding protein 1, RRM domain (G3BP1, Homo sapiens, UniProt Q13283)
# Chain of UniProt Q13283 (whole entry, looked up): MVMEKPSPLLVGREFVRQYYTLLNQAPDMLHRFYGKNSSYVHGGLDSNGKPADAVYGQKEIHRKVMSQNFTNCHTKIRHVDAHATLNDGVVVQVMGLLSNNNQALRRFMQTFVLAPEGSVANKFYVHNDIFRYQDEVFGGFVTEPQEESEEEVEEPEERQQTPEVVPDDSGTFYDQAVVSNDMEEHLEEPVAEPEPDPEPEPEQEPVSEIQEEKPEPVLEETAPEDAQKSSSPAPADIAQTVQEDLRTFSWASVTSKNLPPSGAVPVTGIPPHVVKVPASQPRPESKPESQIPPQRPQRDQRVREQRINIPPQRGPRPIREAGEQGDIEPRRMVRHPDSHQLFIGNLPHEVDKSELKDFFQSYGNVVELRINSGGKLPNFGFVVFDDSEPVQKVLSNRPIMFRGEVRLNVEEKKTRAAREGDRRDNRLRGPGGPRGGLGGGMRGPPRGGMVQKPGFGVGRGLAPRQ
# Technique: RNA Bind-n-Seq
# Molecule type: RNA
# Medium: in vitro
# Concentration: 1 µM
# Notes: whole 134-nt RNA, ends assumed
# With: 150 mM KCl
# Baseline: input library
# Reading: higher = stronger binding
# Constant ends, left off below: GGGAGUUCUACAGUCCGACGAUC … UGGAAUUCUCGGGUGUCAAGG
Strand,log2 enrichment
AAGUCCUGUGCUACACAUCGUAUGUACCGAAUCGGGGCCCGGCCCGGGGCCCGGGGAAAGUAUUAUGUUACGCCGUUCGGAUCUGCACUU,-0.898
CCUCAAGUCCUGUGCUACACAUCGUAUGUACCGAAUCGGUUGGUUGGUUGGGAAAGUAUUAUGUUACGCCGUUCGGAUCUGCACUUCCAG,-0.191
GUCCUGUGCUACACAUCGUAUGUACCGAAUCGGGGCCCCCGGCCCCCGGGGCCCCCGGAAAGUAUUAUGUUACGCCGUUCGGAUCUGCAC,-0.977
CCUGUGCUACACAUCGUAUGUACCGAAUCGGGAAAAAAAGGAAAAAAAGGGAAAAAAAGGGAAAGUAUUAUGUUACGCCGUUCGGAUCUG,-0.044
UGUAGAAAAGGCACUGGACUAACACUUGGCUGUAUCUUGUAACAGGCAUGUUAUGUUACCCAGAGAACUUUCCAAACAAGUACCUAAAAC,-0.0731
CACAGACAACACGCACCCACACAGACACAGAGGGAAGGGGUUGGGAUGGGGACAGGGUGCACAGCAGGGCGGGGUAGGAACCCAGCCCCU,-0.386
UCCUGUGCUACACAUCGUAUGUACCGAAUCGGAAAAAGGGGAAAAAGGGGAAAAAGGGGAAAGUAUUAUGUUACGCCGUUCGGAUCUGCA,0.0707
ACCAUGCAGGUGGGCAUCUGUGGGAAGUGGGGCAAGGGGGGGAUAGGGAGGGGGGUAACACUUUGGGAACAGGUGGUCCCAGGUCGUUUC,-0.463
GUCCUGUGCUACACAUCGUAUGUACCGAAUCGGGCCCCCCGGCCCCCCGGCCCCCCGGAAAGUAUUAUGUUACGCCGUUCGGAUCUGCAC,-0.545

# Block 3
# Target: Histone acetyltransferase KAT6A, winged helix 2, GST fusion (KAT6A, Homo sapiens, UniProt Q92794, residues 85-181)
# Technique: protein binding microarray
# Molecule type: double-stranded DNA, one strand shown
# Medium: in vitro
# Concentration: not given
# Notes: 8-mer, flanks averaged, mean of 2 arrays, mostly near background
# Baseline: not given
# Reading: higher = stronger binding
# Target sequence (chain): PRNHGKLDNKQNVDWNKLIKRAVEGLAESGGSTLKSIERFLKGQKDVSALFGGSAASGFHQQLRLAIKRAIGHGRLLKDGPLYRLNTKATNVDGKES
Strand,E-score
CGATTTAA,0.0567
GGTGCCAC,0.119
TCCGCGAA,0.166
AAAGATGA,0.0903
ACTGGGTG,0.00547
GATTACTA,-0.0982
CTGTCCGC,0.0307
AACTGTGA,-0.0389
ACAGAAGC,0.0495
CTAAGCCC,-0.0848
ATGATCAA,-0.0327
AGGATGTG,-0.0591
CAGAGCAA,0.174
CATACTCA,-0.0334
GACGTTCC,-0.143
TCTCAACA,-0.00127
CTACAGCC,-0.106
CGAGAGGA,0.0203
AGGTGACT,0.0139

# Block 4
# Target: Prothrombin, mature alpha-thrombin (F2, Homo sapiens, UniProt P00734)
# Technique: aptamer microarray, sandwich
# Molecule type: DNA with 2'F-ANA
# Medium: in vitro
# Concentration: 200 nM
# Notes: whole 15-mer aptamer, many near background
# With: Cy3 exosite-II aptamer, 400 nM
# Reading: higher = stronger binding
# Strand: GGTTGGTGTGGTTGG
Modification,mean fluorescence intensity [a.u.]
2'F-ANA at 1 2 4 6 7 10 11 12 14,62.9
2'F-ANA at 3 5 7 9 10 11 12 13 14 15,58.6
2'F-ANA at 1 3 4 5 10 12 14 15,64.5
2'F-ANA at 2 3 5 7 10 11 13,49.5
2'F-ANA at 2 3 4 6 7 8 15,657
2'F-ANA at 2 3 5 8 9 10 14 15,147
2'F-ANA at 1 9 10 14 15,47.7
2'F-ANA at 1 2 3 5 7 8 9 10 12 13 14 15,51.4
2'F-ANA at 1 4 5 8 9 13,62.8
2'F-ANA at 1 2 3 5 6 9 11 13 14,47.7
2'F-ANA at 1 2 4 5 8 10 11 13 14 15,48
2'F-ANA at 2 3 4 5 7 8 9 10 11 15,80.4
2'F-ANA at 2 4 5 6 8 10 11 12 13,52.9
2'F-ANA at 1 2 3 4 6 7 9 14,55.5
2'F-ANA at 1 2 3 6 7 8 10 11 14 15,72.1
2'F-ANA at 3 4 6 12 13,768
2'F-ANA at 1 4 6 7 8 10 13 14 15,165
2'F-ANA at 1 6 9 11 12 13 14 15,63.4
2'F-ANA at 1 2 5 11 12 13,121
2'F-ANA at 2 3 5 6 7 10 11 12 13 14 15,50.9
2'F-ANA at 1 6 7 8 10 11 12 15,69.6
2'F-ANA at 8 9 10 15,158
2'F-ANA at 3 4 6 8 9 12 14,307
2'F-ANA at 3 5 7 10 11 14,64.7
2'F-ANA at 1 2 4 9 10 11 12 13,58.2

# Some of these lines once more (block 4):
Modification,mean fluorescence intensity [a.u.]
2'F-ANA at 1 2 3 5 7 8 9 10 12 13 14 15,51.4
2'F-ANA at 1 4 5 8 9 13,62.8
2'F-ANA at 1 2 3 5 6 9 11 13 14,47.7
2'F-ANA at 1 2 4 5 8 10 11 13 14 15,48
2'F-ANA at 2 3 4 5 7 8 9 10 11 15,80.4
2'F-ANA at 2 4 5 6 8 10 11 12 13,52.9
2'F-ANA at 1 2 3 4 6 7 9 14,55.5
